# Assay results pooled from the literature.
# Protocols differ between the studies behind these lines. Numbers after ± are the reported error.
# CNR1: Cannabinoid receptor 1 (CNR1, Homo sapiens, UniProt P21554)
# Chain of UniProt P21554 (whole entry, looked up): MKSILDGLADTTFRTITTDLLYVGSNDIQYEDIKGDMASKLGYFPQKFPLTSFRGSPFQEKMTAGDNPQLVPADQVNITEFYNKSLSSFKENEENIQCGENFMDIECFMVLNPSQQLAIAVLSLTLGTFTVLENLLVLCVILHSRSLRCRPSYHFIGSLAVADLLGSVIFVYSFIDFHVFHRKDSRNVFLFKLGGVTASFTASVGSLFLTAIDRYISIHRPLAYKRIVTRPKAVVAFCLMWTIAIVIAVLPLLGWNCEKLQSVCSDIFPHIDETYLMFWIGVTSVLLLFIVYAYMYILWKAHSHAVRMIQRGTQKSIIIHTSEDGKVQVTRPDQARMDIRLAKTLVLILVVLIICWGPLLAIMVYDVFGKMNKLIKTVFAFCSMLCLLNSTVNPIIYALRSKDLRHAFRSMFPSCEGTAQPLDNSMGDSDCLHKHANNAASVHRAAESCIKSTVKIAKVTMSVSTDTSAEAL
# Oprd1: Delta-type opioid receptor (Oprd1, Rattus norvegicus, UniProt P33533)
# Chain of UniProt P33533 (whole entry, looked up): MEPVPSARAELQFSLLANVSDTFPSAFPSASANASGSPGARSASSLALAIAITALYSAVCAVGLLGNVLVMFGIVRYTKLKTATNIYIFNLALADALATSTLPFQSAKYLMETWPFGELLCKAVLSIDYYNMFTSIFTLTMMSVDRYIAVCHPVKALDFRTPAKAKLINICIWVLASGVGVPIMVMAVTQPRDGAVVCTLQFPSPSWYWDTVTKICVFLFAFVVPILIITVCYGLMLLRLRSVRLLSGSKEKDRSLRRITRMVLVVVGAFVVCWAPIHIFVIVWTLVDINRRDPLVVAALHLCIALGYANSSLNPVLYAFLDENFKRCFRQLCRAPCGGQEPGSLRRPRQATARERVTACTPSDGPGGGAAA
# Ryanodine receptor 1: Ryanodine receptor 1 (Oncorhynchus mykiss, UniProt A0A8C7UX14)
# Gabrg2/Gabra3 with β3 subunit: Gabrg2/Gabra3, with β3 subunit (Rattus norvegicus, UniProt P18508+P20236)
# Chain of UniProt P18508 (whole entry, looked up): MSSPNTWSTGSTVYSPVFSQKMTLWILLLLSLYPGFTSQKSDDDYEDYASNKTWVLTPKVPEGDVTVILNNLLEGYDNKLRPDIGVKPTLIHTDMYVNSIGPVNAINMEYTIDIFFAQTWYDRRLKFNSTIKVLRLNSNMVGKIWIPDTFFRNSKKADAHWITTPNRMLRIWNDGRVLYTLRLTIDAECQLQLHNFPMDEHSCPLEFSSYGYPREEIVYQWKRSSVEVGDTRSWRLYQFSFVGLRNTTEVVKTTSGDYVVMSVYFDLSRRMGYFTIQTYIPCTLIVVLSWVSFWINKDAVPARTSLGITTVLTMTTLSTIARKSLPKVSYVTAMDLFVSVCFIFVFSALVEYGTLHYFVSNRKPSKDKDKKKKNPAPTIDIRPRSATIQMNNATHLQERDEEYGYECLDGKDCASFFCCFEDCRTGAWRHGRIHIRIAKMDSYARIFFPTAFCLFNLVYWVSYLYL
# Chain of UniProt P20236 (whole entry, looked up): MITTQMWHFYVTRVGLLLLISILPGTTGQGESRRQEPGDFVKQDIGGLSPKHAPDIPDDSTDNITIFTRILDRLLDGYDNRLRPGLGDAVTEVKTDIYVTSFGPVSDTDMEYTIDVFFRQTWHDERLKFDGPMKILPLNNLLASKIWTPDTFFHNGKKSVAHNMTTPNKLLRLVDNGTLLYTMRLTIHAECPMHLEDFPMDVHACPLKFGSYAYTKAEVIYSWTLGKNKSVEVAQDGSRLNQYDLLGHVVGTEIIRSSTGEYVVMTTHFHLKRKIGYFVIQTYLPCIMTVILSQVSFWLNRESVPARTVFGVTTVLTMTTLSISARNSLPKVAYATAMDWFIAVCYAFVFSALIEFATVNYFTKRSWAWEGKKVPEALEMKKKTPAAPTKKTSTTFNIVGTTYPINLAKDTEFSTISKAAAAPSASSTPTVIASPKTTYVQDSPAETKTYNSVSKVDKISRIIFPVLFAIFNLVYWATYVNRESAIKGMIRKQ
# Chain of UniProt P41180 (whole entry, looked up): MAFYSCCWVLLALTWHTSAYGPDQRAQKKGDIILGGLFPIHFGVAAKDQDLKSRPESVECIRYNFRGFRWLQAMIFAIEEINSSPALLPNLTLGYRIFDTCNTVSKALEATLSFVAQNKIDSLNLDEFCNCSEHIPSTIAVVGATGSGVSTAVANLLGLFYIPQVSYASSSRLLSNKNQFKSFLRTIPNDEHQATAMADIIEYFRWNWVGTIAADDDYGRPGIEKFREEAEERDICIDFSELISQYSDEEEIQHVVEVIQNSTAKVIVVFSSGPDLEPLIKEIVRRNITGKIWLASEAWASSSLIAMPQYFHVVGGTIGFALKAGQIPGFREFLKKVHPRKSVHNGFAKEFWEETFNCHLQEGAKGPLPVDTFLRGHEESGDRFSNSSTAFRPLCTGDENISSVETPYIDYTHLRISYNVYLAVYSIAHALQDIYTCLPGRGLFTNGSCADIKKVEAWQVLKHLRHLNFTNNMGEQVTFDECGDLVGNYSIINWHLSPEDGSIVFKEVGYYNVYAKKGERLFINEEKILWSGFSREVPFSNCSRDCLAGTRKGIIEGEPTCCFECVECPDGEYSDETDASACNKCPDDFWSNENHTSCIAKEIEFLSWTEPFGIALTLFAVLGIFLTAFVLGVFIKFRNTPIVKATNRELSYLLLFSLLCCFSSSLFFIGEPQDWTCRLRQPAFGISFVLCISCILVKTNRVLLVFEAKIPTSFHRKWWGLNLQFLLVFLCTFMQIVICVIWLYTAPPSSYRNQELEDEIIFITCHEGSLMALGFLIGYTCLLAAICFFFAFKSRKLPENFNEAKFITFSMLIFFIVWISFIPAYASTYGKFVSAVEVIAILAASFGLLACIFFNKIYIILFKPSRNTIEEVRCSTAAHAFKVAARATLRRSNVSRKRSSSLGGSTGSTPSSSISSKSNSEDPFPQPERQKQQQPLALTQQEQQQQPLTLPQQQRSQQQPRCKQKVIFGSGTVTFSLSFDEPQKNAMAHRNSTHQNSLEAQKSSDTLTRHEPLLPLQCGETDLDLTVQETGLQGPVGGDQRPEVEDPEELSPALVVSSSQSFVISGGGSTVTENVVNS
SMILES,target or system,assay,test system,conditions,how to read,measurement,result
CC(C)(CN1CCC[C@H]1C(N)=O)NC(=O)c1nn(Cc2ccc(F)cc2)c2ccccc12,CNR1,"calcium mobilization, agonist",CHO-K1 expressing Gαq16,,"baseline: CP55,940 maximum",Emax,96 ± 1%
NC(=O)[C@@H]1CSCSC[C@@H](NC(=O)[C@@H](N)Cc2ccc(O)cc2)C(=O)N[C@@H](Cc2ccccc2)C(=O)N[C@@H](Cc2cccc3ccccc23)C(=O)N1,Oprd1,"G-protein activation, agonist",C6 cell membranes,,baseline: SNC80 at 10 µM,Emax,15 to 23%
NC(=O)N1CCC[C@@H](CNC(=O)c2nn(Cc3ccc(F)cc3)c3ccccc23)C1,CNR1,"calcium mobilization, agonist",CHO-K1 expressing Gαq16,,"baseline: CP55,940 maximum",Emax,79 ± 5%
Clc1ccc(Cl)c(-c2c(Cl)c(Cl)cc(Cl)c2Cl)c1,Ryanodine receptor 1,"[3H]ryanodine binding, activator",trout muscle microsomes,concentration not given,baseline: DMSO,Emax,> 160%
CN[C@@](C)(C[18F])C(=O)O,,,"SCID mouse DU-145 xenograft, brain","30 min, post injection",,tissue uptake,0.4 ± 0.1 %ID/g
CC(C)(NC(=O)c1nn(CC2CCCC2)c2ccccc12)c1cccc(C(N)=O)c1,CNR1,"calcium mobilization, agonist",CHO-K1 expressing Gαq16,,"baseline: CP55,940 maximum",Emax,67 ± 4%
CCOC(=O)c1ncn2c1CN(C)C(=O)c1cc(F)ccc1-2,Gabrg2/Gabra3 with β3 subunit,"GABA-induced chloride current, two-electrode voltage clamp",Xenopus oocytes,with: GABA at EC3,,Emax,157 ± 8%
Clc1ccc(-c2c(Cl)ccc(Cl)c2Cl)cc1Cl,Ryanodine receptor 1,[3H]ryanodine binding,"rainbow trout, skeletal muscle microsomes",up to 20 µM,baseline: DMSO,Emax,120 ± 4.44%
NC(=O)c1ccccc1CNC(=O)c1nn(Cc2ccc(F)cc2)c2ccccc12,CNR1,"calcium mobilization, agonist",CHO-K1 expressing Gαq16,,"baseline: CP55,940 maximum",Emax,105 ± 1%
CNC(=O)c1cc2c(cn1)[nH]c1ccccc12,Gabrg2/Gabra3 with β3 subunit,"GABA-induced chloride current, two-electrode voltage clamp",Xenopus oocytes,with: GABA at EC3,,Emax,91 ± 2%
CC(c1ccc(F)cc1)n1nc(C(=O)NC(C)(C)c2cccc(C(N)=O)c2)c2ccccc21 (centres unmarked),CNR1,"calcium mobilization, agonist",CHO-K1 expressing Gαq16,,"baseline: CP55,940 maximum",Emax,77 ± 1%
Clc1ccc(Cl)c(-c2c(Cl)ccc(Cl)c2Cl)c1,Ryanodine receptor 1,"[3H]ryanodine binding, activator",trout muscle microsomes,concentration not given,baseline: DMSO,Emax,~250%
CC(C)C[C@H](NC(=O)[C@@H](NC(=O)[C@H](CO)NC(=O)[C@@H](NC(=O)[C@H](CCCNC(=N)N)NC(=O)[C@H](CO)NC(=O)[C@H](CC(C)C)NC(=O)[C@H](CC(=O)O)NC(=O)[C@H](CC(C)C)NC(=O)[C@H](CC(C)C)NC(=O)[C@@H](NC(=O)CNC(=O)[C@H](Cc1ccccc1)NC(=O)[C@H](CO)NC(=O)[C@@H](N)[C@@H](C)O)C(C)C)[C@@H](C)O)C(C)C)C(=O)O,"CASR (Homo sapiens, UniProt P41180)",intracellular Ca2+,"HEK cells, full-length GPR64-transfected",50 µM,baseline: 7.49 mM Ca2+ in vector cells,Emax,92 ± 1.04%
Brc1ccc(Oc2cc(Br)ccc2Br)c(Br)c1,Ryanodine receptor 1,"[3H]ryanodine binding, activator",trout muscle microsomes,concentration not given,baseline: DMSO,Emax,167%
CC(C)(C)OC(=O)c1ncn2c1[C@@H]1CCCN1C(=O)c1c(Br)cccc1-2,Gabrg2/Gabra3 with β3 subunit,"GABA-induced chloride current, two-electrode voltage clamp",Xenopus oocytes,with: GABA at EC3,,Emax,234 ± 17%
NC(=O)[C@@H]1CSSC[C@@H](NC(=O)[C@@H](N)Cc2ccc(O)cc2)C(=O)N[C@@H](Cc2ccccc2)C(=O)N[C@@H](Cc2cccc3ccccc23)C(=O)N1,Oprd1,"G-protein activation, agonist",C6 cell membranes,,baseline: SNC80 at 10 µM,Emax,15 to 23%
Clc1cc(Cl)c(-c2cc(Cl)c(Cl)cc2Cl)cc1Cl,Ryanodine receptor 1,"[3H]ryanodine binding, activator",trout muscle microsomes,concentration not given,baseline: DMSO,Emax,> 160%

# Some of these lines once more:
SMILES,target or system,assay,test system,conditions,how to read,measurement,result
CN[C@@](C)(C[18F])C(=O)O,,,"SCID mouse DU-145 xenograft, brain","30 min, post injection",,tissue uptake,0.4 ± 0.1 %ID/g
